Published values pooled from the literature.
Every numbered part comes from another study and shows a few of its results, in no order.
UniProt Q5S007, sequence (whole entry, looked up): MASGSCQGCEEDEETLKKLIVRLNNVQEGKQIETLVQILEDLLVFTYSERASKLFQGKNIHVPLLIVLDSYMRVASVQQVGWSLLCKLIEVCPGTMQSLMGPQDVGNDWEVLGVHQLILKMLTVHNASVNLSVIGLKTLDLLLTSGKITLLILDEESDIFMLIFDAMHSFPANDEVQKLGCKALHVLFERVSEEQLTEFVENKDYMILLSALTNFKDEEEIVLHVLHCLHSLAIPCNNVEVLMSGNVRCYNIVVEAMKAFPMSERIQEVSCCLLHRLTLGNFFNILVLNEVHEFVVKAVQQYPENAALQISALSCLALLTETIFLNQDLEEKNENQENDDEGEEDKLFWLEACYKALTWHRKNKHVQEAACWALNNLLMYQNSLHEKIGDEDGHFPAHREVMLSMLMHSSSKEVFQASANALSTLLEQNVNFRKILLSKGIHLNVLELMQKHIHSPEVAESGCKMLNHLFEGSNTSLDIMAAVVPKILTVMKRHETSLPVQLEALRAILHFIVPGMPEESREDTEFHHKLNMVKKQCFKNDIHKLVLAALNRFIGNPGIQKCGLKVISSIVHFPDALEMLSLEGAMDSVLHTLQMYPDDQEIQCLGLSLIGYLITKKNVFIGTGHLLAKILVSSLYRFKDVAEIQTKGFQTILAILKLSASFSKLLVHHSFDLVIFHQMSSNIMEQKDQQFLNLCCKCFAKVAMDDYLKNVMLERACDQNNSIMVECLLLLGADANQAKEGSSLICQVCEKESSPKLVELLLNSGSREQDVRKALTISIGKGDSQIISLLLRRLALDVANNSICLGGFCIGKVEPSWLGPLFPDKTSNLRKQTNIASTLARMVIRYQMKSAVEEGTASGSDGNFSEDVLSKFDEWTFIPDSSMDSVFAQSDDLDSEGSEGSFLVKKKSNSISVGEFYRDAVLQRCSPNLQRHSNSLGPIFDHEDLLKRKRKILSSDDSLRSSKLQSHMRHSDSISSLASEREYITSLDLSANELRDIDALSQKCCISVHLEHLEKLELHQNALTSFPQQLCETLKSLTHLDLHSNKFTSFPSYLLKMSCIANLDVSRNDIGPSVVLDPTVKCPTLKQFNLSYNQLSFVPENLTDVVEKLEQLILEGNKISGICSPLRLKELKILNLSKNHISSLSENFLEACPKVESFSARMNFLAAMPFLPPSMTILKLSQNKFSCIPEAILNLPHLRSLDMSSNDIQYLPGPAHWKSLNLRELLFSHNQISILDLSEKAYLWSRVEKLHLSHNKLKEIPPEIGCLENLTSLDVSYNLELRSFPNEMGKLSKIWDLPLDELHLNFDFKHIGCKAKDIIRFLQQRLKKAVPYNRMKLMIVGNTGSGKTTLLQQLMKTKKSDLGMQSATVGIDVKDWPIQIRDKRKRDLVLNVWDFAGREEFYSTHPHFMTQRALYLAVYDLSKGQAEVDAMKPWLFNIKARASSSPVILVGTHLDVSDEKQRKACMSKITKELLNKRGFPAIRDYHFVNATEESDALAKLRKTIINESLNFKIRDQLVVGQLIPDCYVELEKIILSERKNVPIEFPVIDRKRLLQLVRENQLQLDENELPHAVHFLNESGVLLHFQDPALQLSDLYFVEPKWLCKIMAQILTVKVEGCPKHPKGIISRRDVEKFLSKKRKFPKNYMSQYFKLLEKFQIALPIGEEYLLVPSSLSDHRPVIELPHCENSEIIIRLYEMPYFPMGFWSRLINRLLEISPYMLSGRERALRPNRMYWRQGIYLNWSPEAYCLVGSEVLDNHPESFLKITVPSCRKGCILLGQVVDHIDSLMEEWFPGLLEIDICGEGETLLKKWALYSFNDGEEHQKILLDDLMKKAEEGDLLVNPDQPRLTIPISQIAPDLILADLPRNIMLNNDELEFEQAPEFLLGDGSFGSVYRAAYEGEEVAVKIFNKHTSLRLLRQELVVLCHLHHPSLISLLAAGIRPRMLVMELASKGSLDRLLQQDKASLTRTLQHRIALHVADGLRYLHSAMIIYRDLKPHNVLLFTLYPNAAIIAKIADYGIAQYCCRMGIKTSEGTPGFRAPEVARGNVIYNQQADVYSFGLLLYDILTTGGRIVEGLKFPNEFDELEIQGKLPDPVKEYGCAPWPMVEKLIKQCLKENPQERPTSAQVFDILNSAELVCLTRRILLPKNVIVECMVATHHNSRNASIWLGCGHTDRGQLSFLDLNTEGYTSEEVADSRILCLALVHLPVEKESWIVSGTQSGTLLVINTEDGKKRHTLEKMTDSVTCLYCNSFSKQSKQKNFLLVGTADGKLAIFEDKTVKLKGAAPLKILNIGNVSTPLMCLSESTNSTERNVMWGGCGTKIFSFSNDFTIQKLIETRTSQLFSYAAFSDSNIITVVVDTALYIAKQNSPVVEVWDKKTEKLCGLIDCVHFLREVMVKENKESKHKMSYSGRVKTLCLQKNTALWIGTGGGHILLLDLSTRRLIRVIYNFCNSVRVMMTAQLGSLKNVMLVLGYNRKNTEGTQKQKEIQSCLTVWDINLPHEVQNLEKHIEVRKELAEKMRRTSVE

Set 1
Cell line: HEK-293T/ACE2
Concentration: concentration not given
Time: 16 (unit not given)
Reference: vehicle
| Compound | viability |
| --- | --- |
| CC(O)(CS(=O)(=O)c1ccc(F)cc1)C(=O)Nc1ccc(C#N)c(C(F)(F)F)c1 (stereo not drawn) | 98.3% |
| N[C@@H](CC(=O)N1CCn2c(nnc2C(F)(F)F)C1)Cc1cc(F)c(F)cc1F | 102% |
| CCN[C@H]1CN(CCCOC)S(=O)(=O)c2sc(S(N)(=O)=O)cc21 | 102% |
| COc1c(N2C[C@@H]3CCCN[C@@H]3C2)c(F)cc2c(=O)c(C(=O)O)cn(C3CC3)c12 | 99% |
| N#Cc1ccc(C(c2ccc(C#N)cc2)n2cncn2)cc1 | 101% |
| CCOC(=O)C1=C(COCCN)NC(C)=C(C(=O)OC)C1c1ccccc1Cl (stereo not drawn) | 93.3% |
| CC[C@@H](C(N)=O)N1CCCC1=O | 103% |
| Cc1cc(C)cc(OCC2CNC(=O)O2)c1 (stereo not drawn) | 101% |
| CC(=O)Oc1cc2c(s1)CCN(C(C(=O)C1CC1)c1ccccc1F)C2 (stereo not drawn) | 103% |
| CC1(C)NC(=O)N(c2ccc([N+](=O)[O-])c(C(F)(F)F)c2)C1=O | 102% |
| CO[C@H]1/C=C/O[C@@]2(C)Oc3c(C)c(O)c4c(O)c(c(/C=N/N5CCN(C6CCCC6)CC5)c(O)c4c3C2=O)NC(=O)/C(C)=C\C=C\[C@H](C)[C@H](O)[C@@H](C)[C@@H](O)[C@@H](C)[C@H](OC(C)=O)[C@@H]1C | 99.4% |

Set 2
Structure (SMILES): CNC(=O)c1cc(C(=O)N[C@H]2[C@@H]3COC[C@@H]32)cc2c1O[C@H](CF)[C@H]2c1ccccc1
Concentration: 10 µM
| target | assay | inhibition [%] |
| --- | --- | --- |
| SLC6A2 (Homo sapiens, UniProt P23975) | binding, radioligand binding | 0.32 |
| DRD5 (Homo sapiens, UniProt P21918) | binding, radioligand binding | 28.3 |
| SLC6A3 (Homo sapiens, UniProt Q01959) | binding, radioligand binding | -16.9 |
| OPRK1 (Homo sapiens, UniProt P41145) | binding, radioligand binding | 1.22 |
| OPRM1 (Homo sapiens, UniProt P35372) | binding, radioligand binding | -5.14 |
| CHRM3 (Homo sapiens, UniProt P20309) | binding, radioligand binding | 11.2 |
| HTR2A (Homo sapiens, UniProt P28223) | cell-free assay | 13.4 |
| SLC6A4 (Homo sapiens, UniProt P31645) | binding, radioligand binding | 27.2 |

Set 3
Target: DNA polymerase theta, ATPase domain (POLQ, Homo sapiens, UniProt O75417)
UniProt O75417, sequence (whole entry, unmodified, looked up): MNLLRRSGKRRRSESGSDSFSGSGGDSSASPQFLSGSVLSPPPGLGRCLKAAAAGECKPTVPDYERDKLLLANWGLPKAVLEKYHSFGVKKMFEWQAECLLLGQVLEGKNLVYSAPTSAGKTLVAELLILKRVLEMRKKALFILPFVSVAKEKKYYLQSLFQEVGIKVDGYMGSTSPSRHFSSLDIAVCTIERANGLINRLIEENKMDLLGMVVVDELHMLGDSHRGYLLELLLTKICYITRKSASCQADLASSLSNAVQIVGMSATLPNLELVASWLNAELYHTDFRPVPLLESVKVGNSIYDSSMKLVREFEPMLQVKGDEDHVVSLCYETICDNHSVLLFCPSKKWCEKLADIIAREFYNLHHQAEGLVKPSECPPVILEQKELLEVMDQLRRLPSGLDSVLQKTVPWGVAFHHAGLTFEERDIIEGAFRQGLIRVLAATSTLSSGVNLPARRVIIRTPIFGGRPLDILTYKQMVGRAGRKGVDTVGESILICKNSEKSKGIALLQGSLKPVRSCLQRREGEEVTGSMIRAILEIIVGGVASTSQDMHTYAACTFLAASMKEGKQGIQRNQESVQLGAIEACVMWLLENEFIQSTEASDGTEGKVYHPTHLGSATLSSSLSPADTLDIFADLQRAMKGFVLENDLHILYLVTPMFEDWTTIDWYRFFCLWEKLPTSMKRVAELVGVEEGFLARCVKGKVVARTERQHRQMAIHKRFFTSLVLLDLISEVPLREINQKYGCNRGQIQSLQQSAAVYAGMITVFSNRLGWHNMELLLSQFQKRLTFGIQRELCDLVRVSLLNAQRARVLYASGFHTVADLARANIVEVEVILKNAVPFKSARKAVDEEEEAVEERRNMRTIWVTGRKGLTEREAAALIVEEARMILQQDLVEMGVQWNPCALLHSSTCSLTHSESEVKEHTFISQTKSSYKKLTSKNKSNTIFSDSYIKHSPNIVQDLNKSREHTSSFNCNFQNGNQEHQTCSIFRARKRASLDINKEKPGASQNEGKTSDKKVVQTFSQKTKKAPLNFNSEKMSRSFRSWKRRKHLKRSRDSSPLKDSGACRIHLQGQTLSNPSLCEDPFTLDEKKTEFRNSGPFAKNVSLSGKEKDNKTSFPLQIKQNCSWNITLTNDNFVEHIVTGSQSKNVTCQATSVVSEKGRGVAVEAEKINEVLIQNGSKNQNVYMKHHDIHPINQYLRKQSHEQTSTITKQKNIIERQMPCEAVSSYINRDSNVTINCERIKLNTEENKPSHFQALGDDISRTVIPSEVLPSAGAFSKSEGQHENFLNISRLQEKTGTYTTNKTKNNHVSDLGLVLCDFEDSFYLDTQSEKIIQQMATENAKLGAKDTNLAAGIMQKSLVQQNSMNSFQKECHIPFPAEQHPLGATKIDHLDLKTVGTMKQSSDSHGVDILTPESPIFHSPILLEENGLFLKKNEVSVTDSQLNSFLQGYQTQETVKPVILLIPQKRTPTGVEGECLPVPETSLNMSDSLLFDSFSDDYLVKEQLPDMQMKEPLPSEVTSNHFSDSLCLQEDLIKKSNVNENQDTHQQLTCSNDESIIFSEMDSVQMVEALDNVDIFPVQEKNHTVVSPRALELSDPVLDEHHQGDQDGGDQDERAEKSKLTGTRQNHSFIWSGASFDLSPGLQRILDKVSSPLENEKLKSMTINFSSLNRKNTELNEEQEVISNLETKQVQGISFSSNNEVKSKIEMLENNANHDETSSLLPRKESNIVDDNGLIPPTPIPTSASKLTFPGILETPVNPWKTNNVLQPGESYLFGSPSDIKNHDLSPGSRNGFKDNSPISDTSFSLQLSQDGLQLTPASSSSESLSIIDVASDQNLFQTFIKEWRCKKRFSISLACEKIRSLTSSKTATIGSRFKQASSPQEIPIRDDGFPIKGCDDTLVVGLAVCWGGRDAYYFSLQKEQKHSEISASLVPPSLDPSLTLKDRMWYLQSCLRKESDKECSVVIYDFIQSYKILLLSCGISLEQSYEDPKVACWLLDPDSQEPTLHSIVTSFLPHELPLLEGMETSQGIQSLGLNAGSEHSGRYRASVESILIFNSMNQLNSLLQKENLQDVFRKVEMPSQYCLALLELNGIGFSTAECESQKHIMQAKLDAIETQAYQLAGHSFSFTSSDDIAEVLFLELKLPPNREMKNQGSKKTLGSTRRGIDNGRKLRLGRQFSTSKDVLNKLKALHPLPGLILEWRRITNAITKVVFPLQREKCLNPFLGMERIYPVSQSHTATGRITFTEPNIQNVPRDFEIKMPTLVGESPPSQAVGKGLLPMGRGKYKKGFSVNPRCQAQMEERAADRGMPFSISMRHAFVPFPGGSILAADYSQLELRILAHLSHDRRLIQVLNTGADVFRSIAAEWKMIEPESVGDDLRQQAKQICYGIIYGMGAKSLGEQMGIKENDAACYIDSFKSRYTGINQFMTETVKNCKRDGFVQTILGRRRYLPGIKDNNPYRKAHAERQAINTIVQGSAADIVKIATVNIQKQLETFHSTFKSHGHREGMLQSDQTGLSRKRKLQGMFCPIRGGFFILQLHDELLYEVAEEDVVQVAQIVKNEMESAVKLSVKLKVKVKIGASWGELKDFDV
Effect on: enzyme activity
Mode: inhibitor
Concentration: 77 µM
Reference: untreated
| Compound | remaining activity |
| --- | --- |
| C=CCN1CC[C@]23CCCC[C@H]2[C@H]1Cc1ccc(O)cc13 | 101% |
| C=C[C@]12CN(C)[C@@H]3[C@H]4CO[C@H](C[C@H]41)[C@]1(C(=O)Nc4ccccc41)[C@@H]32 | 99.1% |
| C#CCN[C@H](C)Cc1ccccc1 | 98.1% |
| CCC(COC(=O)c1cc(OC)c(OC)c(OC)c1)(c1ccccc1)N(C)C (stereo not drawn) | 95.1% |
| CC[C@H]1CN2CC[C@H]1C[C@H]2[C@H](O)c1ccnc2ccc(OC)cc12 | 94.2% |
| COc1cc2c3cc1Oc1cc(ccc1O)C[C@@H]1c4c(cc(OC)c(O)c4Oc4cccc(c4)C[C@@H]3N(C)CC2)CC[N+]1(C)C | 98.3% |

Set 4
Compound: COc1ccc2c(c[n+](C)c3c4cc5c(cc4ccc23)OCO5)c1OC
Effect on: enzyme activity
Mode: inhibitor
Concentration: 0.5 µM
| target | assay | scale | remaining activity [%] |
| --- | --- | --- | --- |
| CSNK2A1 (Homo sapiens, UniProt P68400) | – | reference: control | 83.3 |
| MAP3K10 (Homo sapiens, UniProt Q02779) | – | reference: control | 91.7 |
| EPHA5 (Homo sapiens, UniProt P54756) | – | reference: control | 94.6 |
| WNK2 (Homo sapiens, UniProt Q9Y3S1) | – | reference: control | 98.5 |
| KIT (Homo sapiens, UniProt P10721) | – | reference: control | 68.8 |
| PRKCI (Homo sapiens, UniProt P41743) | – | reference: control | 98.3 |
| MAP4K2 (Homo sapiens, UniProt Q12851) | – | reference: control | 96.1 |
| LYN (Homo sapiens, UniProt P07948) | – | reference: control | 100 |
| BTK (Homo sapiens, UniProt Q06187) | – | reference: control | 98.6 |
| MAPK12 (Homo sapiens, UniProt P53778) | – | reference: control | 100 |
| Cyclin-dependent kinase 9, with cyclin T1 (CDK9, Homo sapiens, UniProt P50750) | – | reference: control | 96.4 |
| PRKCD (Homo sapiens, UniProt Q05655) | – | reference: control | 96.8 |
| MAP2K6 (Homo sapiens, UniProt P52564) | – | reference: control | 95 |
| PLK2 (Homo sapiens, UniProt Q9NYY3) | – | reference: control | 97.6 |
| NEK4 (Homo sapiens, UniProt P51957) | – | reference: control | 96.6 |
| AKT3 (Homo sapiens, UniProt Q9Y243) | – | reference: control | 103 |
| CHEK1 (Homo sapiens, UniProt O14757) | – | reference: control | 94.4 |
| PRKG1 (Homo sapiens, UniProt Q13976) | – | reference: control | 98.8 |
| IRAK4 (Homo sapiens, UniProt Q9NWZ3) | – | reference: control | 116 |
| STK33 (Homo sapiens, UniProt Q9BYT3) | radiometric | – | 102 |
| LRRK2 (Homo sapiens, UniProt Q5S007) | – | reference: control | 104 |
| MKNK2 (Homo sapiens, UniProt Q9HBH9) | – | reference: control | 107 |
| CSNK1A1 (Homo sapiens, UniProt P48729) | – | reference: control | 103 |

A few entries again (set 1):
| Compound | viability |
| --- | --- |
| COc1c(N2C[C@@H]3CCCN[C@@H]3C2)c(F)cc2c(=O)c(C(=O)O)cn(C3CC3)c12 | 99% |
| N#Cc1ccc(C(c2ccc(C#N)cc2)n2cncn2)cc1 | 101% |
| CCOC(=O)C1=C(COCCN)NC(C)=C(C(=O)OC)C1c1ccccc1Cl (stereo not drawn) | 93.3% |
| CC[C@@H](C(N)=O)N1CCCC1=O | 103% |
| Cc1cc(C)cc(OCC2CNC(=O)O2)c1 (stereo not drawn) | 101% |
| CC(=O)Oc1cc2c(s1)CCN(C(C(=O)C1CC1)c1ccccc1F)C2 (stereo not drawn) | 103% |
| CC1(C)NC(=O)N(c2ccc([N+](=O)[O-])c(C(F)(F)F)c2)C1=O | 102% |
